Measured values pooled from the literature.
Each numbered part is a random draw from the data of one study; scales do not carry over between parts. Positions count from the first letter of the parent shown.

Block 1 — technique: RNA Bind-n-Seq; molecule type: RNA; sample: in vitro; concentration: 100 nM; baseline: input RNA pool; direction: higher = stronger binding
Target: RING finger protein unkempt homolog, zinc fingers 1-6, SBP tag (UNK, Homo sapiens, UniProt Q9C0B0, residues 30-357)
UniProt Q9C0B0, sequence (30-357, looked up): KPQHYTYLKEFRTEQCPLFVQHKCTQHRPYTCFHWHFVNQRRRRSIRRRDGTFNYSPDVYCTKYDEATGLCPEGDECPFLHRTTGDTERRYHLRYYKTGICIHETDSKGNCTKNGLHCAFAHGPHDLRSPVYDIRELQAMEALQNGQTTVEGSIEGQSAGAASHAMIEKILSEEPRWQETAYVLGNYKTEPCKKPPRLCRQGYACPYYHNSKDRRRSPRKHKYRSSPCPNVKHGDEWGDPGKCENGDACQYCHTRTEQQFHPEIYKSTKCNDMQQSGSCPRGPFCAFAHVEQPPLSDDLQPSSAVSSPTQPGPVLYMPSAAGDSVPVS
Setting: RNA with constant flanks, vertebrate orthologous sites, ends assumed
| Strand | bound/input enrichment [ratio] |
| --- | --- |
| GGGAGUUCUACAGUCCGACGAUCGUUGGGUCAUGAUGCAUACAGGCUAGGUCAUGAAGCAUACAGGUUAGGACAAGACCCCUAUAGAUUAGGCCAUGAUCCCUACAGACUAACUCCUGAUCCCUACAGGAUGUCACCUAGACCCAACAGAGGAUUGAGCAUCA | 0.607 |
| GGGAGUUCUACAGUCCGACGAUCUCUCUGCAAUUUUAAAGACACUUCCUUAUAAGGCACUUUGGCUCUUCAUAUAUCUCAUCCUGUUUACUUACCUGUUUUCAAAAACAGCAGUAUGAACUCAGGGGACUCGCUUGGCGUGUGCAACAGAGGAUUGAGCAUCA | 0.385 |
| GGGAGUUCUACAGUCCGACGAUCUCAUUGGGUUACUCCUAUUAUCAAGUAGCUGGAAUUGUGAAGGUUGAGUAGUUAGAUCUUUAGCUUUUAUUCAUUAUUUUUUGUAUUACUCUCCAUGUGUAUAAAUUAUUGAUCAUGUUGCAACAGAGGAUUGAGCAUCA | 2.7 |

Block 2 — technique: aptamer microarray, sandwich; molecule type: DNA with 2'F-ANA; sample: in vitro; concentration: 200 nM; with: Cy3 exosite-II aptamer, 400 nM; direction: higher = stronger binding
Target: Prothrombin, mature alpha-thrombin (F2, Homo sapiens, UniProt P00734)
Setting: whole 15-mer aptamer, many near background
| Strand | mean fluorescence intensity [a.u.] |
| --- | --- |
| GGTTGGTGTGGTTGG (2'F-ANA at 2 3 6 7 8 10 12 14 15) | 262 |
| GGTTGGTGTGGTTGG (2'F-ANA at 2 3 4 5 8 9 10 14 15) | 47.9 |
| GGTTGGTGTGGTTGG (2'F-ANA at 1 3 5 7 8 9 10 11 12 14) | 49.6 |

Block 3 — target: CCNA1, cyclin fold, Cln2 fusion (human); technique: yeast growth competition, sequencing; sample: yeast; setting: weak parent motif; baseline: not given; direction: higher = stronger binding
Starting sequence: MICAL3 docking peptide (human); LQLRRQLSFSEDS; partner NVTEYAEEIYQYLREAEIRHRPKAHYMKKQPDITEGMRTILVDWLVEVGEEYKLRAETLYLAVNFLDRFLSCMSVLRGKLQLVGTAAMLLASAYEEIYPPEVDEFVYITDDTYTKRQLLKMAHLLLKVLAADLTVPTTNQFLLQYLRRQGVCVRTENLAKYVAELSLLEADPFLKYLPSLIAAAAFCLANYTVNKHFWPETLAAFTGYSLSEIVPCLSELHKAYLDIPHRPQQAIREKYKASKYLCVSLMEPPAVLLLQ
| Substitution | normalised enrichment score |
| --- | --- |
| R4D | -0.227 |
| R5N | 0.466 |
| R4N | 0.0497 |

Single results of other studies
| Molecule | target | assay | test system | setting | scale | endpoint | result |
| --- | --- | --- | --- | --- | --- | --- | --- |
| PhoQ, residues 284 288 289 292 302 303 QWQEDG | PhoP, residues 12 14 15 18 19 NYFTV (Escherichia coli, UniProt P23836) | Sort-seq, measured: YFP reporter | E. coli | PhoQ-PhoP variant library, with: 10 µM Mg2+ | baseline: high Mg2+ state, higher = stronger signaling | fold induction | 0.646 |

For quick reference, copied from above (block 2):
| Strand | mean fluorescence intensity [a.u.] |
| --- | --- |
| GGTTGGTGTGGTTGG (2'F-ANA at 2 3 6 7 8 10 12 14 15) | 262 |
